Experimental data gathered from unrelated publications.
A part holds a random share of what one study measured. Changes are numbered by the printed parent chain.
UniProt Q08345, sequence (whole entry, looked up): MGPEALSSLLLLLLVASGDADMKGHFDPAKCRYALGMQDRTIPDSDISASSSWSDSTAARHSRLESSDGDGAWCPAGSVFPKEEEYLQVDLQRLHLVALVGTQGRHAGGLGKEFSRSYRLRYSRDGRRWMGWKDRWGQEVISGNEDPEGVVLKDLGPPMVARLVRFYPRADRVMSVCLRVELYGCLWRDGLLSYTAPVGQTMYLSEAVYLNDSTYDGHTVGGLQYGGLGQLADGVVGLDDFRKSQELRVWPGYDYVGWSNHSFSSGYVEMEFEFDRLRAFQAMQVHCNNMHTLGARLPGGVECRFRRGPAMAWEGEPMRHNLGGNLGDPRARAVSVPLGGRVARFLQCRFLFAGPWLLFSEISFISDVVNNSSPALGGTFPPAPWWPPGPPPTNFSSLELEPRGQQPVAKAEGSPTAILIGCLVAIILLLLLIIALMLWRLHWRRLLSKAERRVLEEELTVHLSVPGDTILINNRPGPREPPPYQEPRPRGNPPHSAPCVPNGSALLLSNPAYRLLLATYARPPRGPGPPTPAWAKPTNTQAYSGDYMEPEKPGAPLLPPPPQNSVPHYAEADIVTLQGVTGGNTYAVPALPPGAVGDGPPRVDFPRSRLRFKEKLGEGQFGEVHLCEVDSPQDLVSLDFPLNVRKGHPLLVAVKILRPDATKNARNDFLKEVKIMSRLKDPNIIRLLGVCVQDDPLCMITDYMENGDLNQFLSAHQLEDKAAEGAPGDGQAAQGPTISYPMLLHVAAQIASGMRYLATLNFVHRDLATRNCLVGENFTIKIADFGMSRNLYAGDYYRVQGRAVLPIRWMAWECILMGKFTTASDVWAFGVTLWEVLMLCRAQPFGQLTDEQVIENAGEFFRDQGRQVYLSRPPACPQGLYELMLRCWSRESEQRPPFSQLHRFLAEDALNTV
UniProt Q00532, sequence (whole entry, looked up): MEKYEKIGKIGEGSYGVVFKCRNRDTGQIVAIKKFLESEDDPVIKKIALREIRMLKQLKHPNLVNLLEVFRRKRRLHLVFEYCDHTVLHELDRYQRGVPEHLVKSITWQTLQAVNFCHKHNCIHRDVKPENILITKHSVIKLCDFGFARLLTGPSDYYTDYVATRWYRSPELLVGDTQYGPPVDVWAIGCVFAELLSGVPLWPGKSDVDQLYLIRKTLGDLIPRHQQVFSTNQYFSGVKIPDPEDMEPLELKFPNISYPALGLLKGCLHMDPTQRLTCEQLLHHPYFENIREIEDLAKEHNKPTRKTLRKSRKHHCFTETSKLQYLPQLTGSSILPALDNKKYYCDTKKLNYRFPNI
UniProt P49759, sequence (whole entry, looked up): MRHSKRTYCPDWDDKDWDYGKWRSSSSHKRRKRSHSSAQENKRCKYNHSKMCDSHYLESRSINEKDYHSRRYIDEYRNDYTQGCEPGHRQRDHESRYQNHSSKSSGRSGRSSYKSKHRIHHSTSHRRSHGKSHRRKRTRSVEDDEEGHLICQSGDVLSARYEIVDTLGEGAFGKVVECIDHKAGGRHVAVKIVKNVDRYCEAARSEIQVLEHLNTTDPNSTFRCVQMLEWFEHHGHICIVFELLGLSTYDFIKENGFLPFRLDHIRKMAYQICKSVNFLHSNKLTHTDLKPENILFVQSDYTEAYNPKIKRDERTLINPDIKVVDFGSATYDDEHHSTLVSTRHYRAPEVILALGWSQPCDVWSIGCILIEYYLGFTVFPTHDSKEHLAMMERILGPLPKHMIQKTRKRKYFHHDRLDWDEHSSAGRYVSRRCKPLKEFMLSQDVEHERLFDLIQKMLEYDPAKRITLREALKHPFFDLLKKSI
UniProt Q9Y2I7, sequence (whole entry, looked up): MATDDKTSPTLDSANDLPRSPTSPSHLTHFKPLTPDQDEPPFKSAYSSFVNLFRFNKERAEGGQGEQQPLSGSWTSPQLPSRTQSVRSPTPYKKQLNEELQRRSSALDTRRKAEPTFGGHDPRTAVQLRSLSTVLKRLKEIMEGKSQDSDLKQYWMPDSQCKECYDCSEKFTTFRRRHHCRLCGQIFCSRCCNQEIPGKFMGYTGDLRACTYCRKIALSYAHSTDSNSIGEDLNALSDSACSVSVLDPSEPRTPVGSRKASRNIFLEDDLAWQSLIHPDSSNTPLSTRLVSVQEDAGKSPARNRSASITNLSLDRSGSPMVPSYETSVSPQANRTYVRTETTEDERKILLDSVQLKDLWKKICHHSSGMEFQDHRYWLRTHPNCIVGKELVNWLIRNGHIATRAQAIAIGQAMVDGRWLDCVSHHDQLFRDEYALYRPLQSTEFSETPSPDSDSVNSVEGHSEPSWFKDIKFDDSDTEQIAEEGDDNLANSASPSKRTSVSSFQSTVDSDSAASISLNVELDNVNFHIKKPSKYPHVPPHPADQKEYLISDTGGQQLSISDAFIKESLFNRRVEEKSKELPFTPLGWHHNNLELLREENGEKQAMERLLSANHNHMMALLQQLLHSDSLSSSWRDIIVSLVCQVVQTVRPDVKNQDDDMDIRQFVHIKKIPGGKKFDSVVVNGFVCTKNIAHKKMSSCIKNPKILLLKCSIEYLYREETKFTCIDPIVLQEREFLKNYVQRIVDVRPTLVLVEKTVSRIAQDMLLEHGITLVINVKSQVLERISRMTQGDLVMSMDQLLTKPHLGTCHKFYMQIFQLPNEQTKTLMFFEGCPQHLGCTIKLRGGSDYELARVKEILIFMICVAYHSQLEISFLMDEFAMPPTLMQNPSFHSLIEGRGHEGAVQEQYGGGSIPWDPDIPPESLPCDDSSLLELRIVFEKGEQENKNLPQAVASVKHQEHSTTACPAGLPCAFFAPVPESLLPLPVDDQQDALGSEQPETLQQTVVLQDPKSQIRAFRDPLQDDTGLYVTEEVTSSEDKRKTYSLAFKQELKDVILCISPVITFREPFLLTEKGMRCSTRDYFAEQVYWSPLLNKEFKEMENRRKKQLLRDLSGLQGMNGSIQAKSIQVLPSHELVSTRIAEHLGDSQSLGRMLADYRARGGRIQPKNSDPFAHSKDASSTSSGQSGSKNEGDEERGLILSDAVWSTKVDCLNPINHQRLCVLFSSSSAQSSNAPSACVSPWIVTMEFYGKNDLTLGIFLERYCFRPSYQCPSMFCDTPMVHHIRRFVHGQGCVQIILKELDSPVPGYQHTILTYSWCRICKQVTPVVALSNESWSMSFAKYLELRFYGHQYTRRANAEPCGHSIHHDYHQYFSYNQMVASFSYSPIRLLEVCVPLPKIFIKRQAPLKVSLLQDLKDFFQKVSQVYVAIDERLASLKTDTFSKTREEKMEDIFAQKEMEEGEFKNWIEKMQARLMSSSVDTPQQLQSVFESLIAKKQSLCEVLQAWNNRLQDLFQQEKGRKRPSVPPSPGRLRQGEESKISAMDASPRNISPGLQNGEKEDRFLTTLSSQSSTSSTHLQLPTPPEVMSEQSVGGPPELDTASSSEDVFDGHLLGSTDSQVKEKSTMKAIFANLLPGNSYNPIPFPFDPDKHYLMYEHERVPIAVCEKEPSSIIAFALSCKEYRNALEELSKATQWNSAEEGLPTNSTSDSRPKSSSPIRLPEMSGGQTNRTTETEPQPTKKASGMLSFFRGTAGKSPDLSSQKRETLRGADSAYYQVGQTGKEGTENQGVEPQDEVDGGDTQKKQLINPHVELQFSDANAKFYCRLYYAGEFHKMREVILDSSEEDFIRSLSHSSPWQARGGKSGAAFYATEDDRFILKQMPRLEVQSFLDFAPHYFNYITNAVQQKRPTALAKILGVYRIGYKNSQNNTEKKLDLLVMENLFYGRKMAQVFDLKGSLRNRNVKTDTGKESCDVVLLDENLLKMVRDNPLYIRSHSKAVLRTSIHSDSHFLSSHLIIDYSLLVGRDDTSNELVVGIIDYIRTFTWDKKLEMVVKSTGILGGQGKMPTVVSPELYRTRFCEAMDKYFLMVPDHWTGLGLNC
UniProt P22455, sequence (whole entry, looked up): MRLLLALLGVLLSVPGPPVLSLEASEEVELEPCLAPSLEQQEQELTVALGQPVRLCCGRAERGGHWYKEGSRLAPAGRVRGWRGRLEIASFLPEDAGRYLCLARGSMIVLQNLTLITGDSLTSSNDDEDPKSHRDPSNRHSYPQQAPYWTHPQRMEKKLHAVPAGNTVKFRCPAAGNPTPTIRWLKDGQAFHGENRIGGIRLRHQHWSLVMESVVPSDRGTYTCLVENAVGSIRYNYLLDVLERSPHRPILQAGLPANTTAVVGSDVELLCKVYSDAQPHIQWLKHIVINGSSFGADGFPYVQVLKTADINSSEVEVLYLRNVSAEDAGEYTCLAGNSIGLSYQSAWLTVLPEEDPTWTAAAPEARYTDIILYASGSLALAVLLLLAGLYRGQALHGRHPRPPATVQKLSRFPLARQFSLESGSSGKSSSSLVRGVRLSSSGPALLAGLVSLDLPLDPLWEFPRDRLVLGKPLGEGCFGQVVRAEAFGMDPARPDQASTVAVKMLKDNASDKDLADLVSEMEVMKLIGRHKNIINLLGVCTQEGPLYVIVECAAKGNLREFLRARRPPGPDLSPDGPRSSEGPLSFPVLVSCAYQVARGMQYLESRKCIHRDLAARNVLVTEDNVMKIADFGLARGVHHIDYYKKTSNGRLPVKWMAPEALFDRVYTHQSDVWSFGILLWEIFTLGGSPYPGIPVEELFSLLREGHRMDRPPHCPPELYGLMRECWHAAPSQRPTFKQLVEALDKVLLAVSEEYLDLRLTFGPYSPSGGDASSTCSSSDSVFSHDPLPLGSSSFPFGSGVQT

Study 1
Target: ABI1, truncated, D143A, DHFR fusion (Arabidopsis thaliana)
Method: DHFR PCA, deep sequencing
Matrix: yeast
Notes: methotrexate growth selection, single substitutions
Together with: (+)-ABA 2500 µM
Relative to: wild-type fitted maximum
Reading: higher = stronger binding
Starting sequence: PYL1, truncated, DHFR fusion (Arabidopsis thaliana); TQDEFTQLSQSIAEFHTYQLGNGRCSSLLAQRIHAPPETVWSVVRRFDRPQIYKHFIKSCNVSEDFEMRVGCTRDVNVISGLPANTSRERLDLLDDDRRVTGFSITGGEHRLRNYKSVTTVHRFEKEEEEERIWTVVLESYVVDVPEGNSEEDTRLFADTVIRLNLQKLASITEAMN; partner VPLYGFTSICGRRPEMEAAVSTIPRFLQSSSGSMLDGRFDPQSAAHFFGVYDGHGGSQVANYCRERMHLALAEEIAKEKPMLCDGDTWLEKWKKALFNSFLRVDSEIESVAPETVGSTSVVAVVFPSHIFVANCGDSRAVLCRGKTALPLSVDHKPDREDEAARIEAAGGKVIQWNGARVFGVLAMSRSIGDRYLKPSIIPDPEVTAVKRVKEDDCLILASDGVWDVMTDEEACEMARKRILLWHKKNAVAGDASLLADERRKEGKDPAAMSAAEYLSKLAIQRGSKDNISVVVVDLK
| Substitution | relative binding score [%] |
| --- | --- |
| P83S | 89 |
| S26P | 53.2 |
| Q167E | 97.2 |
| E128S | 103 |
| L94M | 104 |
| T73S | 94.3 |
| E125Q | 100 |
| Q7S | 96.3 |

Study 2
Target: RNA binding protein fox-1 homolog 2, RRM domain, GST-SBP tag (RBFOX2, Homo sapiens, UniProt O43251-10, residues 100-194)
Method: RNA Bind-n-Seq
Form: RNA
Matrix: in vitro
Tested at: 365 nM
Notes: natural RNA segment, single round, ends assumed
Relative to: no-protein control
Reading: higher = stronger binding
Constant ends, left off below: GGGAGUUCUACAGUCCGACGAUC … UGGAAUUCUCGGGUGCCAA
Residues (chain): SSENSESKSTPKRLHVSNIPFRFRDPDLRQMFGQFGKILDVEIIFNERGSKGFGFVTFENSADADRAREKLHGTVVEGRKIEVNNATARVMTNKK
| Sequence | RBNS enrichment (R) |
| --- | --- |
| ACCAUUUAUUCUUUCAUUUAUAGUUGGGAAAGUUUUUGACGGUACUAACAAAGUGGUCGCAGGAGAUUUUGGAACGGCUGGUUUAAAUGGCUUCAGGAGACUUCAGUUUU | 0.51 |
| CAUGCUGGCUAGAAGUUGGCCACAACUUGAGCAAAACUGCCUCUCACACAGUGAGAUGCACUCAAAGGACCACGUGUUAUCUGGUAAUCCAAAUUGGUUCCCCUGCUCCC | 0.214 |
| GGUGUCUCAUAGUCACUCAUAGUGGGGUGGUCAGGGGUAAUGGCAUCUCCCCACUUUAGGCUUCUCAAACAGACUUUUGACACCUCUCAAGUUCAGAGCUCUGAUGUGGA | 0.637 |
| CCCUUCCCUGCCUGUGUCUCUUCCCAAACCCCUGUAGGGGUGGUGAGAAGAGGAGGGGGGGAGGGGACACGAUCCCUCCUCAGGCAUCUGGGAAGGCCUUGCCCCCACGG | 0.222 |
| CCCAUAGUUGGUUAUUUUUUAUUUGGGGCAGUGGGUGCAUACGGGGAGGGGAGGGUGUUCUUCCCAACCUAGGGUCCCAGCUGUCUUCACCUGUUCUUACCCACGUCCCU | 0.302 |
| CUGUCAUCAAGAAGCUAUCACAUUUUUGGUACCUCUAUAAAGCUAACCCUUCACAAAAGAAAAGAUCACCAAAAGGGGUUGUAUAUUUGAAAACAUUAUACUUGUAUCCA | 0.355 |
| UAGGACUUAACCAAAUAACCAGUCCAUGAAUAAGCAACCCCAUUACCACAGACAGUACCCACGCUACCAGUCUGAUUAUAAAGGGAGACACUUUAUUUUUUCACAAUUAA | 0.532 |
| CACAUGAGGGGCCGCUCUUCUGUCCUGUGGAGCUCCUGCCCUGCCAGCUCUCCAUGCUGAGCUGUGGCCAAGGGGAACAGGUGGGAUGUUGCUGGCCGCCUUCAGAAUCG | 0.93 |

Study 3
SMILES: NS(=O)(=O)c1cc(NC(=O)Cc2ccccc2)ccc1Oc1cccc(Cl)c1
Method: competition with immobilised ligand
Tested at: 1 µM
| target | observed | remaining binding [%] |
| --- | --- | --- |
| DDR1 (Homo sapiens, UniProt Q08345) | cell-free assay | 94 |
| Ribosomal protein S6 kinase alpha-3, N-terminal kinase domain (RPS6KA3, Homo sapiens, UniProt P51812) | cell-free assay | 72 |
| CLK1 (Homo sapiens, UniProt P49759) | cell-free assay | 67 |
| TNK1 (Homo sapiens, UniProt Q13470) | cell-free assay | 74 |
| CILK1 (Homo sapiens, UniProt Q9UPZ9) | binding | 100 |
| STK38 (Homo sapiens, UniProt Q15208) | cell-free assay | 90 |
| PIK3C2B (Homo sapiens, UniProt O00750) | cell-free assay | 91 |
| BMX (Homo sapiens, UniProt P51813) | cell-free assay | 94 |
| PIKFYVE (Homo sapiens, UniProt Q9Y2I7) | cell-free assay | 95 |
| PRKCD (Homo sapiens, UniProt Q05655) | cell-free assay | 100 |
| MYLK (Homo sapiens, UniProt Q15746) | cell-free assay | 73 |
| FGFR4 (Homo sapiens, UniProt P22455) | cell-free assay | 95 |
| CDKL1 (Homo sapiens, UniProt Q00532) | cell-free assay | 98 |

Study 4
Target: STE20/SPS1-related proline-alanine-rich protein kinase (STK39, Homo sapiens, UniProt Q9UEW8)
Observed: enzyme activity
Action: inhibitor
Tested at: 0.5 µM
Relative to: control
| Structure (SMILES) | remaining activity |
| --- | --- |
| C#Cc1cccc(Nc2ncnc3cc(OCCOC)c(OCCOC)cc23)c1 | 97% |
| COc1cc2nccc(Oc3ccc(NC(=S)NC(=O)c4ccccc4C)cc3)c2cc1OC | 91.5% |
| OCC(O)CCON=C1C(c2c(O)[nH]c3ccccc23)=Nc2ccccc21 (centres unmarked) | 79.3% |
| Cn1c2ccccc2c2c3c(c4c5ccccc5n(CCC#N)c4c21)CNC3=O | 96.7% |
| Nc1ncnc2n[nH]c(Nc3ccc(F)cc3)c12 | 88.5% |
| CCOC(=O)c1c(C)[nH]c(/C=C2\C(=O)Nc3ccccc32)c1C | 85.1% |
| Cn1sc(=O)n(Cc2ccccc2)c1=O | 97.9% |
| Cc1cccc(-c2[nH]c(C(C)(C)C)nc2-c2ccc3c(c2)OCO3)n1 | 107% |
| Cc1ccc(Nc2nccc(N(C)c3ccc4c(C)n(C)nc4c3)n2)cc1S(N)(=O)=O | 95.9% |

For quick reference, copied from above (study 3):
| target | observed | remaining binding [%] |
| --- | --- | --- |
| STK38 (Homo sapiens, UniProt Q15208) | cell-free assay | 90 |
| PIK3C2B (Homo sapiens, UniProt O00750) | cell-free assay | 91 |
